Published values collected from several papers.
Protocols differ between the studies behind these lines. Numbers after ± are the reported error.

CNS(=O)(=O)Nc1nccc(Cc2c(C)c3ccc(Oc4ncccc4F)cc3oc2=O)c1F  IC50 (JIMT-1; cell viability; 7 days): > 1000 nM
Cc1c(C)c2cccnc2c2ncccc12.Cc1ccc2c(Cl)cc(Cl)c([O-])c2n1.Cc1ccc2c(Cl)cc(Cl)c([O-])c2n1.[Co+2]  IC50 (HL-7702 normal hepatocytes; cell viability, MTT; 48 h): 59000 ± 1030 nM
COc1ccc(CC[C@H]2OC(=O)[C@@H]3CCCCN3C(=O)C(=O)C(C)(C)COC(=O)C=CCCN(C)C(=O)[C@H](CC(C)C)NC(=O)[C@@H](Cc3ccccc3)N(C)C(=O)[C@@H]3CCCN3C(=O)[C@H](CC(C)C)N(C)C(=O)CCC(=O)Nc3cccc2c3)cc1OC  IC50 (HUVEC; thymidine uptake, inhibitor): > 20000 nM
CCOc1cncc(-c2ccc(NC(=O)C3(c4ccnc(NS(=O)(=O)C5CC5)n4)CCOCC3)nc2)n1  IC50 (HuT78; cell growth or viability, ATP luminescence; 72 h): 33 nM
O=C1C(Nc2ccc(Cl)cc2)c2ccccc2N1Cc1ccccc1 (stereo not drawn)  IC50 (L02; cell growth or viability, MTT; 48 h): 81500 nM
CC(C)C[C@H](NC(=O)CN)C(=O)N[C@H]1CCC[C@@H]1C(=O)N[C@@H](CCCCN)C(=O)N[C@@H](CC(C)C)C(=O)N[C@@H](C)CC(=O)N[C@@H](CCCCN)C(=O)N[C@@H](CCCCN)C(=O)N[C@H]1CCC[C@@H]1C(=O)N[C@@H](CC(C)C)C(=O)N[C@@H](CCCCN)C(=O)N[C@@H](CO)CC(=O)N[C@@H](Cc1ccccc1)C(N)=O  IC50 (HUVEC; cytotoxicity): 306 µg/mL
Cc1ccc([N+](=O)[O-])cc1S(=O)(=O)N(C)/N=C/c1cnc2ccc(Br)cn12  IC50 (IGROV-1; cell viability, MTS): 251 nM
CC(C)c1ccc(N(C)c2ccc3c(c2)OCC[C@H]3CNc2cnccc2C(=O)O)cc1  IC50 (NCI-H1355; cell growth or viability, ATP luminescence; 7 days): 20.6 nM
Cn1ncc(-c2ccc3c(=O)[nH]nc(CN)c3c2)c1-c1c(F)c(Cl)cc(OC2CC2)c1C#N  IC50 (A3/KAW; cell viability; 120 h, relative IC50): 30 nM

For quick reference, copied from above:
Cn1ncc(-c2ccc3c(=O)[nH]nc(CN)c3c2)c1-c1c(F)c(Cl)cc(OC2CC2)c1C#N  IC50 (A3/KAW; cell viability; 120 h, relative IC50): 30 nM
